{"data": "Experimental data pooled from the literature", "note": "A part holds a random share of what one study measured."}
{"data": "Set 1", "target": "Sal-like protein 4, full length isoform A (SALL4, Homo sapiens, UniProt Q9UJQ4, residues 1-1053)", "method": "universal PBM", "molecule type": "double-stranded DNA, one strand shown", "sample": "in vitro", "tested at": "600 nM", "setting": "8-mer, flanks averaged, mean of replicates", "direction": "higher = stronger binding", "UniProt Q9UJQ4, sequence (whole entry, looked up)": "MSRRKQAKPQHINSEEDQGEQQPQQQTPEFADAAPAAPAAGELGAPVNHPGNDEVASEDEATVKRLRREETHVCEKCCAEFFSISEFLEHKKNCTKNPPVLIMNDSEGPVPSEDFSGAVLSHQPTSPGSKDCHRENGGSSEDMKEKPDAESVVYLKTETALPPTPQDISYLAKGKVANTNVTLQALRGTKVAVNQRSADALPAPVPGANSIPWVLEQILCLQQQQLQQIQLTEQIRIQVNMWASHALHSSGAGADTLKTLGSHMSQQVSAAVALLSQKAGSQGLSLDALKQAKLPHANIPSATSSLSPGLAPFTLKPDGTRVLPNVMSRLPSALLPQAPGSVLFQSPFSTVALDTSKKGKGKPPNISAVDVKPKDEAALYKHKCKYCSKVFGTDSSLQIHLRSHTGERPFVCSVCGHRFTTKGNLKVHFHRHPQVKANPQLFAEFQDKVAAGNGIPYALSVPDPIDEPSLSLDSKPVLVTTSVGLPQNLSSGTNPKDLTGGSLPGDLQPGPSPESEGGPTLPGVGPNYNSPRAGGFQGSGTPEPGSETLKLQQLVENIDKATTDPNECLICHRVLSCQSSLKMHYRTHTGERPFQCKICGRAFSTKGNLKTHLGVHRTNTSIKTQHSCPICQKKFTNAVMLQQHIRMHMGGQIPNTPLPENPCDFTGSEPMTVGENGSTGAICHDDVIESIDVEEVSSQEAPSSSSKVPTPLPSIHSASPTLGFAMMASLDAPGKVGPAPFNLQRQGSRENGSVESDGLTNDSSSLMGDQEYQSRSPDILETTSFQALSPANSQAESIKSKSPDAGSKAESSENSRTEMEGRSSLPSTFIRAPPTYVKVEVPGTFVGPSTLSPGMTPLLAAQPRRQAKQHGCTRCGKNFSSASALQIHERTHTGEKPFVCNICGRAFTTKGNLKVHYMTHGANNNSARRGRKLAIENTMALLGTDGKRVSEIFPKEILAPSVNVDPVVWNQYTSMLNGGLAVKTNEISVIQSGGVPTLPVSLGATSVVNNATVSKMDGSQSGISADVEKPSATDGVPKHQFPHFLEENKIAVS"}
{"Strand": "CTGTCATA", "E-score": 0.237}
{"Strand": "ATCTTTCG", "E-score": 0.0167}
{"Strand": "CTGAAGGA", "E-score": -0.182}
{"Strand": "GCCGACCC", "E-score": -0.398}
{"data": "Set 2", "target": "Histone acetyltransferase KAT6A, winged helix 2, GST fusion (KAT6A, Homo sapiens, UniProt Q92794, residues 85-181)", "method": "protein binding microarray", "molecule type": "double-stranded DNA, one strand shown", "sample": "in vitro", "tested at": "not given", "setting": "8-mer, flanks averaged, mean of 2 arrays, mostly near background", "reference": "not given", "direction": "higher = stronger binding", "Target sequence (chain)": "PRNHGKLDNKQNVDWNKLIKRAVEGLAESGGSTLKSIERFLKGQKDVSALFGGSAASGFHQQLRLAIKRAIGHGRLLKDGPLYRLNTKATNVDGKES"}
{"Strand": "AGTAGAAT", "E-score": -0.0931}
{"Strand": "GGTTCTGA", "E-score": 0.0703}
{"Strand": "CTTTACCC", "E-score": 0.00571}
{"Strand": "ATTATATA", "E-score": 0.0237}
{"Strand": "ACATCACC", "E-score": -0.178}
{"data": "Set 3", "target": "Interferon regulatory factor 7, full length, phosphomimetic (IRF7, Homo sapiens, UniProt Q92985, residues 1-503, S471D/S472D/S475D/S476D/S477D/S483D/S484D/S487D)", "method": "protein-binding microarray", "molecule type": "double-stranded DNA, one strand shown", "sample": "in vitro", "tested at": "2200 nM top", "setting": "60-bp whole probe", "added": "salmon DNA 0.4 mg/ml", "reference": "random background probes", "direction": "higher = stronger binding", "UniProt Q92985, sequence (whole entry, unmodified, looked up)": "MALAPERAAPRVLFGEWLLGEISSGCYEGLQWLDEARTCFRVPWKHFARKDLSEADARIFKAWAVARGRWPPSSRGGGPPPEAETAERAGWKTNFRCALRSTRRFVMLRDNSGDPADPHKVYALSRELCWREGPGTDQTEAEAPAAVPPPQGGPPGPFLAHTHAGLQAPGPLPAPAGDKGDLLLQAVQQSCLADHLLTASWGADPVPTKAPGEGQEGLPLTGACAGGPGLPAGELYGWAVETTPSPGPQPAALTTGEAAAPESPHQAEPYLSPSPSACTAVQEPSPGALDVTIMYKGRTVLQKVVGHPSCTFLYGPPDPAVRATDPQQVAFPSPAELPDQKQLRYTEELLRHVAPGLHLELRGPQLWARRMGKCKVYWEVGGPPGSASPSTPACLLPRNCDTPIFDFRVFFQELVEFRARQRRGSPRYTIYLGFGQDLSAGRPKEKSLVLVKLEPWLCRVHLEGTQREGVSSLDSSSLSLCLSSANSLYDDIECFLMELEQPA"}
{"Strand": "GCCTAGCACTTAGGTTTCGGAACTGGGTTAGTGCTAGTCTTGATTCGCTTGACGCTGCTG", "fitted relative affinity [z-score]": 3.42}
{"Strand": "GCCTAGCACCCACTTTCACTTCTCCCTTTGTGCTAGGTCTTGATTCGCTTGACGCTGCTG", "fitted relative affinity [z-score]": 12.6}
{"Strand": "GCCTAGCACGACGATCTCAGTATCTAGACGTGCTAGGTCTTGATTCGCTTGACGCTGCTG", "fitted relative affinity [z-score]": 0.117}
{"data": "Single results of other studies"}
{"Substance": "PhoQ, residues 284 288 289 292 302 303 GNNTDL", "target": "PhoP, residues 12 14 15 18 19 TPWLV (Escherichia coli, UniProt P23836)", "test": "Sort-seq, item: YFP reporter", "test system": "E. coli", "conditions": "PhoQ-PhoP variant library, added: 10 µM Mg2+", "how to read": "reference: high Mg2+ state, higher = stronger signaling", "endpoint": "fold induction", "value": 6.38}
{"note": "Repeated from above (single results of other studies):"}
{"Substance": "PhoQ, residues 284 288 289 292 302 303 GNNTDL", "target": "PhoP, residues 12 14 15 18 19 TPWLV (Escherichia coli, UniProt P23836)", "test": "Sort-seq, item: YFP reporter", "test system": "E. coli", "conditions": "PhoQ-PhoP variant library, added: 10 µM Mg2+", "how to read": "reference: high Mg2+ state, higher = stronger signaling", "endpoint": "fold induction", "value": 6.38}
